Experimental data gathered from unrelated publications.
Compare with care: the assays were run in different laboratories. ± marks the error that the study gave.
Method: steady-state kinetics
B1: enzyme A178R/D177A/M179H/P184R (Levilactobacillus brevis, UniProt Q03Q85); chain MKVTVVGCTHAGTFAIKQILAEHPDAEVTVYERNDVISFLSCGIALYLGGKVADPQGLFYSSPEELQKLGANVQMNHNVLAIDPDQKTVTVEDLTNHAQTTESYDKLVMTSGSWPIVPKIPGIDSDRVKLCKNWAHAQALIEDAKEAKRITVIGAGYIGAELAEAYSTTGHDVTLIARHARVMRKYFDADFTDVIEQDYRDHGVQLALGETVESFTDSATGLTIKTDKNSYETDLAILCIGFRPNTDLLKGKVDMAPNGAIITDDYMRSSNPDIFAAGDSAAVHYNPTHQNAYIPLATNAVRQGILVGKNLVKPTVKYMGTQSSSGLALYDRTIVSTGLTLAAAKQQGLNAEQVIVEDNYRPEFMPSTEPVLMSLVFDPDTHRILGGALMSKYDVSQSANTLSVCIQNENTIDDLAMVDMLFQPNFDRPFNYLNILAQAAQAKVAQSVNA
B2: protein (Actinidia chinensis, UniProt H9M5U5); chain MATAAGPIATNNSPQNSNAYRTPIAPSVPITHKWSIAEDLTCISNPSKHNNPQTGYRSFSDELYVKYEEKLEDVRKALREVEENPLEGLVMIDALQRLGIDYHFRGEIGAFLQKQQIISSTPDGYPEHGLYEVSTLFRFLRQEGHNVTADVFNNFKDKEGRFRSELSTDIRGLMSLYEASQLRIEGEDILDQAADFSSQLLGRWTKDPNHHEARLVSNTLTHPYHKSLATFMGQKLSYMNCKGPNWDGVDNLQELAKMDLTIVQSIHQKEVFQVSQWWKDTGLANELKLARNQPLKWYMWPMAALTDPRFSEERVELTKPISFIYIIDDIFDVYGTIEELTLFTDAVNRWELSAVEQLPDYMKVCFKALYDVTNEIAYKIYKKHGQNPIDSLQKTWASLCNAFLVEAKWFASGHLPNAEEYLKNGIISSGVHVVLAHMFFLLGDGITQESVDLVDDYPGISTSIATILRLSDDLGSAKDEDQDGYDGSYIECYMKEHKGSSVDSAREEVIRMISEAWKCLNKECLSPNPFSESFRIGSLNMARMIPMMYSYDDNHNLPILEEHMKAMIYNTSL
B3: enzyme (Mortierella alpina, UniProt U5Y6A8); chain MAPPHVVDEQVRRRIVVEDEIQSKKQFERNYVPMDFTIKEIRDAIPAHLFIRDTTKSILHVVKDLVTIAIVFYCATFIETLPSLALRVPAWITYWIIQGTVMVGPWILAHECGHGAFSDSKTINTIFGWVLHSALLVPYQAWAMSHSKHHKGTGSMSKDVVFIPATRSYKGLPPLEKPAAEEEVLEQEHHHHEESIFAETPIYTLGALFFVLTLGWPLYLIMNFSGHEAPHWVNHFQTVAPLYEPHQRKNIFYSNCGIVAMGSILTYLSMVFSPLTVFMYYGIPYLGVNAWIVCITYLQHTDPKVPHFRDNEWNFQRGAACTIDRSFGTIVNHLHHHIGDSHQCHHMFSQMPFYNAVEATKHLKAKLGKYYIFDDTPIAKALYRNWRECKFVEDEGDVVFYKH
B4: ybiA (Escherichia coli, UniProt P30176); chain MPVRAQRIQHVMQDTIINFYSTSDDYGDFSNFAAWPIKVDGKTWPTSEHYFQAQKFLDEKYREEIRRVSSPMVAARMGRDRSKPLRKNWESVKEQVMRKALRAKFEQHAELRALLLATAPAKLVEHTENDAYWGDGGHGKGKNRLGYLLMELREQLAIEK
B5: protein (Streptomyces coelicolor, UniProt Q9K464); chain MAAYLCAPAVIHGEHSVETREIVEEVRGRHPHAPWAPRIDGIAASTGIESRGWMLPLEAAVAPGGGGDLGAAREALVRDGFTEQDANRAIAALKAVPASQTVQERTAPAWEAVQAYGERAARGALQIAGLDVADVDCLITSNSTTPALPGLDVALANRLPLRGDTMLLPATQWACVAGTRSLALAADLVAADPDRVVLVVISEALSTTYQPADDTLESLIVRLLFADTAVAAVVTGRPRPESVLRLDAAWHHTLPGTRDLHRLETRADGTHFVMDRRGPRAVQETVTAMWEWLRVRYEDDPSSWHPDVLLAHPGGTRVLEYMEQTMPDEWPSGLLSYSRDSYTSGNRGGAAVFDILRRAHDAGQKTGSRAVLYAAAPGLTATALEGEWL
B6: protein (Adiantum capillus-veneris, UniProt A0A4Y6I289); chain MTDAVENKQVEFGALEVEGIKFAPSVAALGSTKQLVLGGAGFRGLEISGNLVKFTAIGIYVDEAIIPHLSPKLHGKSIEELCNNELLFEEVLAAPFEKLVRVVFLLPLTGPQYSEKVVERMGLLPNPGIKEESTKQFLEIFKPENFPPRTSLICSFTEEALKVAFMKTDDFPEDADAVIEDKWLARAFLASIIGKDGVSPLAKLSFAERMSRCL
B7: sacB S422A (Priestia megaterium, UniProt D5DC07); chain KGNDSKDFNNSYGISHITRDNMVKIPQQQNSDQFKVPAFDESTIKNIASAKGKNASGNTIDLDVWDSWPLQNADGTVATYHGYQIVFALAGDPKDSNDTSVYLFYKKAGDKSIDSWKNAGRVFKDSDKFVPNDPHLKNQTQEWSGSGTLTKDGKVRLFYTDYSGKQYGKQTLTTAQVNMSQPNDNTLKVDGVEDYKSIFDGDGKIYQTVQQFIDEGGYDTGDNHTLRDPHYIEDNGHKYLVFEANTGTEDGYQGEDSLYNRAYYGGNNPFFQSEKKKLLEGSNKEKASLANGALGIIELNDDYTLKKVMKPLITSNTVTDEIERANIFKKDGKWYLFTDSRGSKMTIDGIGQDDVYMLGYVSNTLTGKYKPLNDTGLVLHMDLDPNDKTFTYAHFAVPQTKGDNVVITSYMTNRGFYEDNHSTFAPSFLVNIDGSKTSVVKDRVLEQGQLTVDED
B8: TenA_E (Arabidopsis thaliana, UniProt Q9ASY9); chain MEKRGVIDTWIDKHRSIYTAATRHAFVVSIRDGSVDLSSFRTWLGQDYLFVRRFVPFVASVLIRACKDSGESSDMEVVLGGIASLNDEIEWFKREGSKWDVDFSTVVPQRANQEYGRFLEDLMSSEVKYPVIMTAFWAIEAVYQESFAHCLEDGNKTPVELTGACHRWGNDGFKQYCSSVKNIAERCLENASGEVLGEAEDVLVRVLELEVAFWEMSRGGQ
Sequence of UniProt P95748 (whole entry, looked up): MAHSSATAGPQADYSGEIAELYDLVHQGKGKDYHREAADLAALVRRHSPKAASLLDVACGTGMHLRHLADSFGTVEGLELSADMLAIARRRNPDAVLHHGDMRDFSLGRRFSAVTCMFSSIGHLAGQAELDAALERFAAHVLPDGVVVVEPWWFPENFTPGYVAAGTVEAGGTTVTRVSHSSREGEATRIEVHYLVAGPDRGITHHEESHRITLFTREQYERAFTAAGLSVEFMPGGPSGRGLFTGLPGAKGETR
Sequence of UniProt P19337 (whole entry, looked up): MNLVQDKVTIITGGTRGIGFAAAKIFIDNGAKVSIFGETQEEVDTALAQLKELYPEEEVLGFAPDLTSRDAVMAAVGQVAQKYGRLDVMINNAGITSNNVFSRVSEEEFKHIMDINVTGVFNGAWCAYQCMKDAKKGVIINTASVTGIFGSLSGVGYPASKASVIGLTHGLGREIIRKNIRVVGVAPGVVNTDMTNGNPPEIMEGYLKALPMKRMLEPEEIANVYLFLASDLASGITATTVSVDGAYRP
Sequence of UniProt Q9HJT3 (whole entry, looked up): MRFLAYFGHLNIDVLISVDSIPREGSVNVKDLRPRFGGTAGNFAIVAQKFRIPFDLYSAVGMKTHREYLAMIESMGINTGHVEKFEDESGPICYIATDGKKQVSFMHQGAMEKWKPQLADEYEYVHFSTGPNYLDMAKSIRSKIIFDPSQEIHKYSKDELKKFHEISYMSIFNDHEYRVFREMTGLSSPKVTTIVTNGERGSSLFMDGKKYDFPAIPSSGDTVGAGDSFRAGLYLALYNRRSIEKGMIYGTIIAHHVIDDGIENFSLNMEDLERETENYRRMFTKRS
Sequence of UniProt Q8QZR1 (whole entry, looked up): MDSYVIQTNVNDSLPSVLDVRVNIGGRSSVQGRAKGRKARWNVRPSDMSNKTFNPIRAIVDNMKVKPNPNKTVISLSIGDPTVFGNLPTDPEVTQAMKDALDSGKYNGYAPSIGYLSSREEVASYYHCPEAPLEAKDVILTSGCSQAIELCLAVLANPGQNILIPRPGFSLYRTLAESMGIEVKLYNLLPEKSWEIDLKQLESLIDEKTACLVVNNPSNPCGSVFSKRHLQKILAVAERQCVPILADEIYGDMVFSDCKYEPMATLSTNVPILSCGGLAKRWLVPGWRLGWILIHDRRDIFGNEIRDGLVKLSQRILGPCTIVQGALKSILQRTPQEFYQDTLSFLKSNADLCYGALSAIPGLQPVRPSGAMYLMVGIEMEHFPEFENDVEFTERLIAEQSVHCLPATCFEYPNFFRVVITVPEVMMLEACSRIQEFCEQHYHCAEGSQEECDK

Substance | substrate | pH | temperature | setting | added | kcat/Km [M⁻¹ s⁻¹]
TaNK (Thermoplasma acidophilum, UniProt Q9HJT3) | Nc1ncnc2c1ncn2[C@@H]1O[C@H](COP(=O)(O)OP(=O)(O)OP(=O)(O)O)[C@@H](O)[C@H]1O | pH 8 | 22 °C | apparent | inosine, Mg2+ | 3700 ± 100
B1 (enzyme A178R/D177A/M179H/P184R) | NC(=O)C1=CN([C@@H]2O[C@H](COP(=O)(O)OP(=O)(O)OC[C@H]3O[C@@H](n4cnc5c(N)ncnc54)[C@H](O)[C@@H]3O)[C@@H](O)[C@H]2O)C=CC1 | pH 7.5 | 37 °C | per site |  | 110000 ± 20000
enzyme (Irpex lacteus, UniProt A0A510I1H7) | CC(=O)Oc1ccc([N+](=O)[O-])cc1 | pH 6 | 30 °C |  |  | 20600
enzyme (Helicobacter pylori, UniProt O24890) | N=C(N)NCCC[C@H](N)C(=O)O | pH 8 | 37 °C |  |  | < 0.0172
protein (Actinidia deliciosa, UniProt Q32W37) | CC(C)=CCC/C(C)=C/CC/C(C)=C/CO[P@@](=O)(O)OP(=O)(O)O | pH 7.5 |  |  | FPP 1-100 µM | 6700 ± 500
STH1425 (Symbiobacterium thermophilum, UniProt Q67PI3) | O=C(O)C(=O)Cc1ccccc1 | pH 9 | 30 °C | reductive amination | NH4Cl 200 mM, NADPH 0.5 mM | 9 ± 2
B2 (protein) | CC(C)=CCC/C(C)=C/COP(=O)(O)OP(=O)(O)O | pH 7.5 | room temperature | labelled compound | MgCl2 20 mM | 69000
TylM1 (Streptomyces fradiae, UniProt P95748) | Cc1cn([C@H]2C[C@H](O)[C@@H](COP(=O)(O)OP(=O)(O)O[C@H]3O[C@H](C)[C@@H](O)[C@H](N)[C@H]3O)O2)c(=O)[nH]c1=O |  | 25 °C |  | SAM | 3800 ± 300
B3 (enzyme) | CCCCC/C=C\C/C=C\C/C=C\CCCCC(=O)SCCNC(=O)CCNC(=O)[C@H](O)C(C)(C)COP(=O)(O)OP(=O)(O)OC[C@H]1O[C@@H](n2cnc3c(N)ncnc32)[C@H](O)[C@@H]1OP(=O)(O)O | pH 7.5 | 28 °C |  |  | 4170
B4 (ybiA) | Nc1nc(N[C@@H]2O[C@H](COP(=O)(O)O)[C@@H](O)[C@H]2O)c(N)c(=O)[nH]1 | pH 8 | 22 °C | substrate not purified |  | 1
B5 (protein) | CC(C)C(=O)CC(=O)SCCNC(=O)CCNC(=O)[C@H](O)C(C)(C)COP(=O)(O)OP(=O)(O)OC[C@H]1O[C@@H](n2cnc3c(N)ncnc32)[C@H](O)[C@@H]1OP(=O)(O)O | pH 7.8 | 30 °C | NaCl 150 mM | methylmalonyl-CoA 1.0 mM | 17800
B6 (protein) | O=C(/C=C/c1ccc(O)cc1)c1c(O)cc(O)cc1O |  |  |  |  | 1.6e+06
B7 (sacB S422A) | OC[C@H]1O[C@@](CO)(O[C@H]2O[C@H](CO)[C@@H](O)[C@H](O)[C@H]2O)[C@@H](O)[C@@H]1O | pH 6.6 |  |  |  | 4910
B8 (TenA_E) | Cc1ncc(CNC=O)c(N)n1 | pH 7.5 | 30 °C | formylamino-HMP amidohydrolase activity | 450 mM glycine betaine | 40.9
Tat (Mus musculus, UniProt Q8QZR1) | O=C(O)CCC(=O)C(=O)O | pH 7 | 38 °C |  | PLP | 14200
BaiA2 (Clostridium scindens, UniProt P19337) | C[C@H](CCC(=O)SCCNC(=O)CCNC(=O)[C@H](O)C(C)(C)COP(=O)(O)OP(=O)(O)OC[C@H]1O[C@@H](n2cnc3c(N)ncnc32)[C@H](O)[C@@H]1OP(=O)(O)O)[C@H]1CC[C@H]2[C@@H]3[C@H](O)C[C@@H]4CC(=O)CC[C@]4(C)[C@H]3CC[C@]12C | pH 8.7 | 37 °C |  | NADH | 151000
enzyme (Clostridium autoethanogenum, UniProt A0ABM5NRF0) | NC(=O)C1=CN([C@@H]2O[C@H](COP(=O)(O)OP(=O)(O)OC[C@H]3O[C@@H](n4cnc5c(N)ncnc54)[C@H](OP(=O)(O)O)[C@@H]3O)[C@@H](O)[C@H]2O)C=CC1 | pH 7.5 | 25 °C | cofactor varied |  | 3.9e+07
